Measurements from different studies.
Each numbered part is a random draw from the data of one study; scales do not carry over between parts.

Series 1
Target: Prothrombin, mature alpha-thrombin (F2, Homo sapiens, UniProt P00734)
Method: aptamer microarray, sandwich
Molecule type: DNA with 2'F-ANA
Matrix: in vitro
Tested at: 200 nM
Setting: whole 15-mer aptamer, many near background
Together with: Cy3 exosite-II aptamer, 400 nM
Direction: higher = stronger binding
Quantity: mean fluorescence intensity
Oligonucleotide: GGTTGGTGTGGTTGG
Modification = 2'F-ANA at 1 2 5 7 8 10 11 13 14; value = 45.8 a.u.
Modification = 2'F-ANA at 1 2 4 5 7 11 15; value = 54.6 a.u.
Modification = 2'F-ANA at 3 4 5 8 13 15; value = 148 a.u.
Modification = 2'F-ANA at 2 3 4 9 11 13 15; value = 433 a.u.
Modification = 2'F-ANA at 1 2 3 4 5 6 8 9 11 13; value = 50.8 a.u.
Modification = 2'F-ANA at 3 5 7 8 10 13 14; value = 52.8 a.u.
Modification = 2'F-ANA at 2 4 5 6 7 9 11 13 15; value = 52.1 a.u.
Modification = 2'F-ANA at 1 5 9 10 12 13 15; value = 46.6 a.u.
Modification = 2'F-ANA at 2 4 6 7 9 11 13 15; value = 134 a.u.
Modification = 2'F-ANA at 1 2 3 5 9 11 15; value = 55.8 a.u.
Modification = 2'F-ANA at 1 2 3 4 5 8 9 13; value = 50.3 a.u.
Modification = 2'F-ANA at 1 2 3 7 9 10 11 12 14; value = 53.2 a.u.
Modification = 2'F-ANA at 1 3 7 11 14; value = 96.7 a.u.
Modification = 2'F-ANA at 1 2 4 5 6 8 11 12 13 14 15; value = 55.6 a.u.
Modification = 2'F-ANA at 2 5 6 7 8 9 11 12 13 14 15; value = 59.3 a.u.
Modification = 2'F-ANA at 2 4 5 6 7 8 10 11; value = 53.6 a.u.
Modification = 2'F-ANA at 2 6 7 13 15; value = 273 a.u.
Modification = 2'F-ANA at 1 3 4 6 7 8 9 10 13 14 15; value = 55.4 a.u.
Modification = 2'F-ANA at 1 4 6 8 10 12 13 15; value = 63.6 a.u.
Modification = 2'F-ANA at 3 4 5 6 7 12 14; value = 55.1 a.u.
Modification = 2'F-ANA at 3 5 8 9 10 12 13; value = 169 a.u.
Modification = 2'F-ANA at 2 3 4 5 6 9 13 14 15; value = 48.3 a.u.
Modification = 2'F-ANA at 4 6 7 8 9 10 14; value = 68 a.u.
Modification = 2'F-ANA at 1 3 6 7 8 10 11 12 13 14; value = 64.6 a.u.
Modification = 2'F-ANA at 1 2 4 5 6 7 8 9 12 14; value = 49.6 a.u.

Series 2
Target: RNA binding protein fox-1 homolog 2, RRM domain, GST-SBP tag (RBFOX2, Homo sapiens, UniProt O43251-10, residues 100-194)
Method: RNA Bind-n-Seq
Molecule type: RNA
Matrix: in vitro
Tested at: 365 nM
Setting: natural RNA segment, single round, ends assumed
Reference: no-protein control
Direction: higher = stronger binding
Quantity: RBNS enrichment (R)
Constant ends, left off below: GGGAGUUCUACAGUCCGACGAUC … UGGAAUUCUCGGGUGCCAA
Residues (chain): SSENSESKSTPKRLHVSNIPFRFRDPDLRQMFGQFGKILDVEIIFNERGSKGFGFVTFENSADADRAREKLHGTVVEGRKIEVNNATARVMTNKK
Oligonucleotide = UCAUUUUUGCUCAUUUAAUUCUAUAAAUUCUCUUUAUAAAUGAAUUUUGUGUUCUUUAGUUCUCCUUAAAAGAACUUUUGAAUUAUAAAAAUAAAAUCUUUACCUGUCGA; value = 0.742
Oligonucleotide = UUUUUUACACAAUCAUUAAUGAGAUUUGUCUUCAGCCACCAGUGUUGGCCUUGAAGCAGAGGGCACAGCCCUUGGUGUUUGUAAAAUAAGUAUGAAUACACAGUGUGGCA; value = 0.474
Oligonucleotide = CUGUGUUUAUCCACCGGUAGCGAUGCCCACCUUCCAGCCGGGAGAAAUAAAUGGUUUAUAAGAGACCCGGUUGCCUCAGCUUCUGCUUCCUUGGCUUGCGGAGGAAUUGG; value = 0.281
Oligonucleotide = CGUGGACGGCCUUGCUUGCUGUAGCGUUGUAGGGGCCCUGCCUGCACUGCGGUUGUCCACGGUCACAUCUGCCCCAGUGCCUUUGUCCUUCCCUUGGGGCUUGCCGGCCA; value = 1.8
Oligonucleotide = CCGAGGGUUAAGCUGGUUUAGCAGGUCAUUGCUCAGCUUUGCUUGUCUCCCUGGGCAAGGGAAGGGGACCAGGAGAAAGGUGAUGAGGCCCCAGGGACUCCUGUCAUCUG; value = 0.583
Oligonucleotide = UAAACCUAUUGCUUGAAGCUUUGAACAGCUGAGAAGUGGUCUGGAGAGGCAGAAGCUGAAGGUUCUAUAUCCAGUGUGUUUUAUGUCCAGAAUGUAAGAGAGUUGUCUAA; value = 1.18
Oligonucleotide = GUUUCUAGUACACGAUAUGACGGGACCAAGUACAAGCUGGUGGUGGACAGAGCUGGGUGCCACAGUUUUCCACCAAGAGCAGCCUCUUUUCUUCAUGGAGUUCUCAGAAC; value = 0.274
Oligonucleotide = CCAUAACCCCAGACCAAAGAGGUUCUCUAAGCAGCUGUGACCAGGUUCCUCCCUCCCCACCUGCCCUCCUAGCUCCAGCACUGCCCCCGUGGCAGCCCACUUGGACCCCC; value = 0.668
Oligonucleotide = GCACAUGCUUCAGAAUCCUAUGGAAGAGAAUAUUCCUACUUGCAGUACAUCAAAGGAAUGGAUGGUGGACCCUACUAUUCAUGUUUUGAGACAUAAAUGUUCACUUUAAA; value = 0.647

Series 3
Target: Interferon regulatory factor 5, full length, phosphomimetic (IRF5, Homo sapiens, UniProt Q13568-2, residues 1-514, S451D/S453D/S456D/S462D)
Method: protein-binding microarray
Molecule type: double-stranded DNA, one strand shown
Matrix: in vitro
Tested at: 940 nM top
Setting: 60-bp whole probe
Together with: salmon DNA 0.4 mg/ml
Reference: random background probes
Direction: higher = stronger binding
Quantity: fitted relative affinity
Constant ends, left off below: GCCTAGCAC … GTCTTGATTCGCTTGACGCTGCTG
Oligonucleotide = CACGATATCGGGTTTCGAGACGTGCTA; value = 2.52 z-score
Oligonucleotide = TTAGGTCTCGGTGTCGGTTAGTGCTAG; value = 3.63 z-score
Oligonucleotide = GACGGTTCCGGGTTTCGGGACGTGCTA; value = 2.88 z-score
Oligonucleotide = TTGATAATTTTTTTCTAAGTGTGCTAG; value = 0.14 z-score
Oligonucleotide = TTAGGTAACGACTATCGGTTAGTGCTA; value = 0.0531 z-score
Oligonucleotide = TTAGGACTGCTTCTCCTTTTGTGCTAG; value = -0.277 z-score
Oligonucleotide = TTAGAAATGAGTTTCGATTAGTGCTAG; value = 8.31 z-score
Oligonucleotide = TTAGGTTCCGACTTTCGGTTAGTGCTA; value = 2.86 z-score
Oligonucleotide = TCAGCTCCCTTTCTCTCTGTGTGCTAG; value = 1.15 z-score
Oligonucleotide = TTAGGTATCGGGTATCGGTGAGTGCTA; value = 7.1 z-score
Oligonucleotide = TTAGATCTCAGAATGGATTAGTGCTAG; value = -0.152 z-score
Oligonucleotide = TCATGTTTCTGTGTCACACTGTGCTAG; value = 1.87 z-score
Oligonucleotide = TATTATATCTGTGTTATTAAGTGCTAG; value = 0.423 z-score
Oligonucleotide = GACTGTATCGGTATCGGGACGTGCTAG; value = 4.79 z-score
Oligonucleotide = GACGAACTGGGTCTCGAGACGTGCTAG; value = 0.0595 z-score
Oligonucleotide = TTAGCTTTCCTTTTCCTTTAGTGCTAG; value = 1.19 z-score
Oligonucleotide = GACGGTATCGGGTTTTGGGACGTGCTA; value = 3.84 z-score
Oligonucleotide = GACGATTTCATACTGGAGACGTGCTAG; value = 0.257 z-score
Oligonucleotide = TTAGGTCTCGGTCTTGGTTAGTGCTAG; value = 4.16 z-score
Oligonucleotide = GTTGCTCTCCGGGGTCTGTGAGTGCTA; value = 0.325 z-score
Oligonucleotide = TTAGGACTGCTTATACTTTAGTGCTAG; value = -0.116 z-score
Oligonucleotide = TCACATATTTGTTTCCAACTGTGCTAG; value = 0.823 z-score
Oligonucleotide = GACGGTCTCCTACTTCTGACGTGCTAG; value = 0.101 z-score
Oligonucleotide = TTAGCTTTCAGTCTCGATTAGTGCTAG; value = 4.28 z-score
Oligonucleotide = GGCGGTTTCGGACTGGGGACGTGCTAG; value = 7.04 z-score

Series 4
Target: Sal-like protein 4, full length isoform A (SALL4, Homo sapiens, UniProt Q9UJQ4, residues 1-1053)
Sequence of UniProt Q9UJQ4 (whole entry, looked up): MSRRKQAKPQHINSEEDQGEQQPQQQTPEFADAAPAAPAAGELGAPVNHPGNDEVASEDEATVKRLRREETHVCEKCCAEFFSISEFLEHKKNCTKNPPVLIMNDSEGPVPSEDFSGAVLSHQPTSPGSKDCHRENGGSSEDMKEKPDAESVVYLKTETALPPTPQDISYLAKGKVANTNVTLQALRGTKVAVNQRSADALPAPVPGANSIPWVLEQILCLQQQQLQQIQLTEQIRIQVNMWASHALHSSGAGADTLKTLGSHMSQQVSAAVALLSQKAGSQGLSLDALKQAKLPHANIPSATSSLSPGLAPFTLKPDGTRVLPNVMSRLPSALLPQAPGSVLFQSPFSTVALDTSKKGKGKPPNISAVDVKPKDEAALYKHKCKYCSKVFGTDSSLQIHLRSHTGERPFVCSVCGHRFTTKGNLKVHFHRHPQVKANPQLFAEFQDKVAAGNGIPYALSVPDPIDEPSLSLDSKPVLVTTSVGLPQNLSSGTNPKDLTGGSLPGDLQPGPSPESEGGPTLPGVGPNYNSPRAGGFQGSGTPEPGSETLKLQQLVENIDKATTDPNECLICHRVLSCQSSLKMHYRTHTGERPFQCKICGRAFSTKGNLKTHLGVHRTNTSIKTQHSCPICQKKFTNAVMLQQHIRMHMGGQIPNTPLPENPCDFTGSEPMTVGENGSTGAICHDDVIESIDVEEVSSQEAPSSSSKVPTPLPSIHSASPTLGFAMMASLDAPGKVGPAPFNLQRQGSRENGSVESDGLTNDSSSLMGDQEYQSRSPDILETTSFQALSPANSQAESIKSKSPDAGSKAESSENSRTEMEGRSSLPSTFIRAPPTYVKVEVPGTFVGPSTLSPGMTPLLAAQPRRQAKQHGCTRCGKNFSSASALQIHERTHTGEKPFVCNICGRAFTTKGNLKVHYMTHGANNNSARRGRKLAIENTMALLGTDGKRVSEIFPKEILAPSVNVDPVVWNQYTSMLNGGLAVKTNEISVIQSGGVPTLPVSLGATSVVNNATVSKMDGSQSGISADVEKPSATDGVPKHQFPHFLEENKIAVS
Method: universal PBM
Molecule type: double-stranded DNA, one strand shown
Matrix: in vitro
Tested at: 600 nM
Setting: 8-mer, flanks averaged, mean of replicates
Direction: higher = stronger binding
Quantity: E-score
Oligonucleotide = AGGTTCGC; value = -0.22
Oligonucleotide = GAGATGGC; value = -0.0598
Oligonucleotide = ACGATTCA; value = 0.0036
Oligonucleotide = AAAGCTTC; value = 0.0423
Oligonucleotide = GGAGTCCA; value = -0.162
Oligonucleotide = CCATCCGA; value = -0.0529
Oligonucleotide = AAGTAATA; value = 0.32
Oligonucleotide = CCATTGCG; value = -0.187
Oligonucleotide = ACCTCCGG; value = -0.305
Oligonucleotide = AATGGTAC; value = 0.195
Oligonucleotide = CAGATCAC; value = -0.0947
Oligonucleotide = CCTTTCCA; value = 0.0127
Oligonucleotide = AAGGACAG; value = -0.114
Oligonucleotide = CAACGAGG; value = -0.0438
Oligonucleotide = AACCGAGC; value = -0.288
Oligonucleotide = GTTTCTTA; value = 0.106
Oligonucleotide = AATTATGG; value = 0.41
Oligonucleotide = AGACGTGG; value = -0.184
Oligonucleotide = TACCGTAA; value = 0.201
Oligonucleotide = CGAGCGAA; value = -0.135
Oligonucleotide = ACAGTACA; value = 0.087

Repeated from above (series 1):
Modification = 2'F-ANA at 1 5 9 10 12 13 15; value = 46.6 a.u.
Modification = 2'F-ANA at 1 2 5 7 8 10 11 13 14; value = 45.8 a.u.
Modification = 2'F-ANA at 3 5 7 8 10 13 14; value = 52.8 a.u.
Modification = 2'F-ANA at 1 3 7 11 14; value = 96.7 a.u.
Modification = 2'F-ANA at 1 2 3 5 9 11 15; value = 55.8 a.u.
Modification = 2'F-ANA at 1 2 3 7 9 10 11 12 14; value = 53.2 a.u.
